Assay results collected from several papers.
Parts stem from different laboratories: compare values within a part only.

Block 1
Target: RING finger protein unkempt homolog, zinc fingers 1-6, GST-SBP tag (UNK, Homo sapiens, UniProt Q9C0B0, residues 30-357)
Method: RNA Bind-n-Seq
Form: RNA
Matrix: in vitro
Tested at: not given
Notes: RNA with constant flanks, human and mouse sites, ends assumed
Reference: input RNA pool
Direction: higher = stronger binding
Shared flanks, not repeated: GGGAGUUCUACAGUCCGACGAUC … CAACAGAGGAUUGAGCAUCA
Target sequence (chain): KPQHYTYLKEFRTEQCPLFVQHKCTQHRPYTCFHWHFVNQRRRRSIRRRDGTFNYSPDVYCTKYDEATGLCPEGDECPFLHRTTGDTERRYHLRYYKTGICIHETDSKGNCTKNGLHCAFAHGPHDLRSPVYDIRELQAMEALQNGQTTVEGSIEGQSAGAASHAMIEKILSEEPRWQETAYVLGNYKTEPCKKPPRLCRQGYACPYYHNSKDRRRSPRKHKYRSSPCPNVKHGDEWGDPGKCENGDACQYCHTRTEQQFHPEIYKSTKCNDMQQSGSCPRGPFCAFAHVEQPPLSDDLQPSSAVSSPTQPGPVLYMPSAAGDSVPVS
Sequence | bound/input enrichment
AUUUAUCUGUAUGAAAUUCCAGCAGUUAAUUUGAACGUUUAUGUAUAGGAUGUUUGUAUUCUUAGGUCUUUACUACAGUGUUUCUACCUCUCAUUUGUAACUGCAUUAUCUUCAAAAUAG | 7.69 ratio
UUUAAUGUGAUGAUGUAAUUGAUGGUUUUUUAUUAUUGUGGUAGGCCUUUUAACAUUUUGUUCUUACACAUACAGUUUUAUGCUCUUUUUUACUCAUUGAAAUGUCAUGUGUUGUCUGAU | 0.549 ratio
GCCAGCCCUGCGCCUCGCGCCGUCGCGCAUGCGUCCUGGUCUUUCUCUAGAGUUGUAUAUAUAGAACAUCCUGGAGUCCACCAUGAACGGACAGUUGGAUCUAAGUGGGAAGCUAAUCAU | 0.137 ratio
UUGUGCAUAUGAUGCUUGAGAUGGUUUUGCAGAUGCAGACAUCGCUGCAAGGUCAUUCUAAUAGAGACAAGCGGUAUUUUAAACCUUUGAAAGGAAUGGAUGUAACUGUACGUUGGUACA | 0.238 ratio
UGCCAGAGUAUCAACCUCUUCGUGGAAAGCUUCCUCAAAAUGGUGGCCAAGCUGCUGGAGUCGGAGAAGCCGAACCUGCAGAUCCUUGGCACCAACUCGUUUGUGAAGUUCGCCAACAUU | 0.0552 ratio
GAUUCCCUUGGAAUUCCAUUUUUGGAAACCAGUGCUAAGAACGCAACGAAUGUAGAACAGUCUUUCAUGACGAUGGCAGCUGAGAUUAAAAAGCGAAUGGGUCCUGGAGCUACAGCUGGU | 0.146 ratio
CAGGCCCUGGGCCUGCUCCUUGCCACCAACCGAACCGUGAAUGUAGGGCCCCCAGCCUCACCUCUGCCCCAGGACCAACAACACCCUGGUUUGGAGCUGGGAGGAAGAAGGGGGCCUGAG | 0.132 ratio
CAAAAUUACCAAGAAUACAAUCUGGCCAACAUCAUCUACUACUCUCUGAAGGAGUCCACCACUAGUGAGCAGAGUGCCAGGAUGACAGCCAUGGACAAUGCCAGCAAGAAUGCUUCUGAG | 0.21 ratio
CUGUAGUCCUCAGAAAGGAAGCUCCAGGACAUUUCAUGACUAUAAUGCAUGCACUAUUUAUAUAGACUGACCUGGCUUUAAAAGAUGGAGCCUGGCAAGUUCCUCACAUAAUCAAUGUAU | 0.145 ratio
UACUUAUGCCAAUAUUGUGAAUAUUCAACAGGACAAAUUGACGAUCUUAAAAUUCAUCUAGAUUUCAAGCAUUCAGCUGACUUGCCUCAUAAAUGUAGUGAGUGCUUGAUGAGGUUUGGG | 0.288 ratio
AGUUAUGACGGUAUAAAGCUUGAGCCUGAAAAUCCCCCACCAUAUGAAGAAGCCAUGAGUGUAGCACUAAAAACAUCGGACUCAAAGGAAGAAAUUAAAGAGCCUGAAAGUUUUAAUGCA | 0.284 ratio

Block 2
Target: Sal-like protein 4, full length isoform A (SALL4, Homo sapiens, UniProt Q9UJQ4, residues 1-1053)
Sequence of UniProt Q9UJQ4 (whole entry, looked up): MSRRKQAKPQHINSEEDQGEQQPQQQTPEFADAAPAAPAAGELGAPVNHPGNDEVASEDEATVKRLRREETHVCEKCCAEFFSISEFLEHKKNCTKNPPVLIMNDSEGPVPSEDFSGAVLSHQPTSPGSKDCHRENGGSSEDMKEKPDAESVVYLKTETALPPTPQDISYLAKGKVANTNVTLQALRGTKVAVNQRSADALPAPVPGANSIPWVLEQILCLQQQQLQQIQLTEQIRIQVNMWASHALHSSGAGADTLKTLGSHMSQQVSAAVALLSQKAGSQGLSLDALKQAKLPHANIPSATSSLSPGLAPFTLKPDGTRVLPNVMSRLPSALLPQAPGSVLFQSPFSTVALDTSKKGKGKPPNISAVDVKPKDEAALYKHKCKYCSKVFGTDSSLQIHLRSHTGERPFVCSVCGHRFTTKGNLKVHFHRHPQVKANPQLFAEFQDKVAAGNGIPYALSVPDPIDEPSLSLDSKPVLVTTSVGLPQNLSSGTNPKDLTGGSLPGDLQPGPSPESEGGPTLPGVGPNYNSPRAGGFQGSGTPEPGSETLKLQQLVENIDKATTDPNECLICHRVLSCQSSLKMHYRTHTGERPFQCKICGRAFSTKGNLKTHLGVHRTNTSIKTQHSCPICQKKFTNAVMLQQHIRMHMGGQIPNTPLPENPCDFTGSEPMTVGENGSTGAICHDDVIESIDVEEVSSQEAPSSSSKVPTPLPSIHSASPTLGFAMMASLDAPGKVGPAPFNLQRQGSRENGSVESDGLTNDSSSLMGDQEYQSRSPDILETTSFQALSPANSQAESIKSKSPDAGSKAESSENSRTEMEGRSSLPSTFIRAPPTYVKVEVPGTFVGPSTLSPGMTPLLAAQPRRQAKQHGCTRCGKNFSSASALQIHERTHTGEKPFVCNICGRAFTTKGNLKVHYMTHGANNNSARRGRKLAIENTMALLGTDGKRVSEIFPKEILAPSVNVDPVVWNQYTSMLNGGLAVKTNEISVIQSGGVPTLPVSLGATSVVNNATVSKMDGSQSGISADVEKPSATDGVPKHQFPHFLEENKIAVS
Method: universal PBM
Form: double-stranded DNA, one strand shown
Matrix: in vitro
Tested at: 600 nM
Notes: 8-mer, flanks averaged, mean of replicates
Direction: higher = stronger binding
Sequence | E-score
CGTAATTC | 0.0478
GAGACTGA | -0.115
AGGACGCG | -0.188
CACAACGG | -0.204
AAGCTTGG | -0.14
AATGGACG | 0.134
CCGCACAA | -0.074
GTAAAACA | 0.195
GTCGGATA | -0.0234
AGCCTAAT | 0.0651
ATTTTGAG | 0.227
ACCTACAT | 0.157
TCTGCCCA | -0.151
GCGGCCGA | -0.2
CCCTTTCA | -0.0133
TACATGAA | 0.294
AGAGTTGA | 0.0122
GAAACTTC | -0.0417
ATGTAACG | 0.231
GAGGCGAA | -0.187
ATCGATTG | 0.151
TGCATCCA | -0.0432
CCGCGCAA | -0.137
AGTTTGAC | 0.0121
GCTTCGTA | 0.118

Block 3
Target: RNA binding protein fox-1 homolog 2, RRM domain, GST-SBP tag (RBFOX2, Homo sapiens, UniProt O43251-10, residues 100-194)
Method: RNA Bind-n-Seq
Form: RNA
Matrix: in vitro
Tested at: 365 nM
Notes: natural RNA segment, single round, ends assumed
Reference: no-protein control
Direction: higher = stronger binding
Shared flanks, not repeated: GGGAGUUCUACAGUCCGACGAUC … UGGAAUUCUCGGGUGCCAA
Construct (chain): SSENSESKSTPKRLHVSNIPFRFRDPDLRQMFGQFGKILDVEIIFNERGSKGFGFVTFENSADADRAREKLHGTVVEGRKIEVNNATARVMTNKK
Sequence | RBNS enrichment (R)
UCAGAUGAUGUGGUUUGUACACUUUCUGUAACCACCAGUGUGGACUUGAAGAAGUGUCCUCAGCAUGUGCAGAGUCUACUACCCAGUACCAGUCGUGAGUCUGCAGGCUC | 2.92
UUUGUAACAUAUUAAUUAUAAAUAUUGUAUUUAUCUUUGAAAUUUUGUACAUUGCUUUCCCUGCCUUCUUUUUUCACGUCUGUUUUGGUGUUUGAUCCCUGCCCAGUGUU | 1.73
AGGUCCACCGUCUCCCCUCCCCUCAUUUGUAAGAAUAGCUACACACUAACAUUUUGGGAAGGAGAGGCACAUAACUUUUUUUAACAUUUGGUAACUAGGUUAUGGGCUCU | 0.43
CAAGUGACAGGAAAGAUUCCCUGGUCUGCAUCUAAACAUUAGUCAACAGAAGGAAAAGGCUCUUUUCCUUGGAGAUUUUCAAGUUGAAAAAGUACAGCUGCUUGGAUGGA | 0.289
AUUUGGGAUAGAUUACAUAGGAGUAUGGAGUAUGCUGUAAAUAAAAAUACAAGCUAGUGCUUUGUCUUAGUAGUUUUAAGAAAUUAAAGCAAACAAAUUUAAGUUUUCUU | 0.412
AGCCUGAUUUUUUUUCUGGUGUGUGUAAAAUACUUCCUAGGAAUACACUGGGCACUUUUGGAAAUAAUGUUUAAAUCAUUCAGGUUGUGUUCCUGUCCCCAAAACAGAUC | 0.438
GUUCUUUGUGUAUCAUGCAUUUAAAAUGAGAUGGAAAAGCAUUAGCAUACUGUGUAAAUAUGGACCUUUUCAGAUUAAAACGUUAAUGGAAAUGCUUUUAACUCAAACAG | 0.307
GUAGACACUUCUGGGACGUUGCUGCGCAUGCAGCAUCGGAAGGCAGCACAGGCGCUGGCAGUGGAUACAGCAGGCCUGUCUAGUCUCCCACAGUGGGUUUGGCUGAUUGU | 0.75
CCAAGCAAGGAUUUUGCACCGCAGCUGCUUGGAUGUAUUUAAACUCCUCAUGGUUCAGAUAGCUAUUUCUGAAUGUAUAUUUCAUGGCUUCAAAGCAGCUACUCAACUAA | 0.64
AAAAACUAGCUCAUUAAAGAUGAAAUAGACCAGCUCUCUUCAGUGAAGAGGACAAAUAGUUUAUUUAAAGCAUUUGUUCCAAUAAAAUAAAUAGAGGGAAACUUGGAUGC | 0.296
UUUAGUUGUCAUAUAAAAACCCACUGUUUGAGAAUGAUGCUACUCUGAUCUAAUGAAUGUGAACAUGUAGAUGUUUUGUGUGUAUUUUUUUAAAUGAAAACUCAAAAUAA | 3.95
GCCGCUCUCCCCUCCUGUGGAUCCCUCCGCACUAACAGUGUUCUCAGUGGGCAGACGCCUGGGCACCCCUUGGGCCCUGCCCAGCAUGGCCAUGGCGCAGGCUCUCGAAC | 2.47

Block 4
Target: Ras GTPase-activating protein-binding protein 1, full length (G3BP1, Homo sapiens, UniProt Q13283)
Sequence of UniProt Q13283 (whole entry, looked up): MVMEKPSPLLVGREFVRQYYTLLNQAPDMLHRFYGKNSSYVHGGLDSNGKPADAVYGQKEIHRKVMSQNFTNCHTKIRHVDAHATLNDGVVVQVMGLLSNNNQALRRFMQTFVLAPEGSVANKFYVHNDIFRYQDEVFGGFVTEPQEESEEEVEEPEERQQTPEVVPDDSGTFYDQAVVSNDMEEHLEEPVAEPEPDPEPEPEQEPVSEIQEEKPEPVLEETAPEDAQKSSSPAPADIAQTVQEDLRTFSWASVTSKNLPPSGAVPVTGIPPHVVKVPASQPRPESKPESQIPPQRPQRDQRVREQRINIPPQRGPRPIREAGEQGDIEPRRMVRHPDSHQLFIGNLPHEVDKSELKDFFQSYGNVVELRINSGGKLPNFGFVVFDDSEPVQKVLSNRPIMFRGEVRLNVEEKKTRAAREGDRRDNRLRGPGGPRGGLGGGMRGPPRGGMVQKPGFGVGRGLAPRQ
Method: RNA Bind-n-Seq
Form: RNA
Matrix: in vitro
Tested at: 200 nM
Notes: whole 134-nt RNA, ends assumed
Added: 150 mM LiCl
Reference: input library
Direction: higher = stronger binding
Each molecule: 7-deaza-guanosine replaces G
Shared flanks, not repeated: GGGAGUUCUACAGUCCGACGAUC … UGGAAUUCUCGGGUGUCAAGG
Sequence | log2 enrichment
CACAGACAACACGCACCCACACAGACACAGAGGGAAGGGGAUGGGAUGGGGACAGGGUGCACAGCAGGGCGGGGUAGGACCCCAGCCCCU | -0.904
UUUGGCAAUGAGAUCUAAACCAGACAAAGACCUCCUUAUGGAAGAAGAUGACAUGGCCUUGGCAAAUGUAGUCAUGCAGGAAGCUCAGAA | -2.2
CACAGACAACACGCACCCACACAGACACAGAGGGAAGGGGUUGGGAUGGGGACAGGGUGCACAGCAGGGCCGGGUAGGACCCCAGCCCCU | 0.329
AAGUCCUGUGCUACACAUCGUAUGUACCGAAUCGGGGUUUGGGUUUGGGGUUUGGGAAAGUAUUAUGUUACGCCGUUCGGAUCUGCACUU | -0.73
CAAGUCCUGUGCUACACAUCGUAUGUACCGAAUCGGGCCCCGGCCCCGGGCCCCGGAAAGUAUUAUGUUACGCCGUUCGGAUCUGCACUU | -1.73
UCCUGUGCUACACAUCGUAUGUACCGAAUCGGGGUUUGGGGUUUUUUUGGGGAAAGGGGAAAGUAUUAUGUUACGCCGUUCGGAUCUGCA | 0.465
CACAGACAACACGCACCCACACAGACACAGAGGGAAGGGGUUGGAAUGGGGACAGGGUGCACAGCAGGGCGGGGUAGGACCCCAGCCCCU | -1.08
CAAGUCCUGUGCUACACAUCGUAUGUACCGAAUCGGUUUUGGGUUUUGGGUUUUGGAAAGUAUUAUGUUACGCCGUUCGGAUCUGCACUU | -1.09
CUGUGCUACACAUCGUAUGUACCGAAUCGGGGAAAAAAAGGGGAAAGGGGUUUUUUUGGGGAAAGUAUUAUGUUACGCCGUUCGGAUCUG | -0.23
UUCCCUGGUGUGAUUCCGUCCUGCGCGGUUGUUCUCUGGAGCAGCGUUCUUUUAUCUCCGUCCGCCUUCUCUCCUACCUAAGUGCGUGCC | 1.38
UUUUUUGUAGUAGGGAGAUCCUUGAUCAUCAGGAUGGUAAUGUAGAAGAUGAUGGGCUUACAGGACUCCUAAGGCUUGCAACAAGUGUUG | 0.0996

Some of these lines once more (block 2):
Sequence | E-score
CCCTTTCA | -0.0133
TACATGAA | 0.294
AGAGTTGA | 0.0122
